Results from different studies.
± marks the error that the study gave.
YBX1: YBX1 51-140 (Homo sapiens, UniProt P67809)
UniProt P67809, sequence (whole entry, looked up): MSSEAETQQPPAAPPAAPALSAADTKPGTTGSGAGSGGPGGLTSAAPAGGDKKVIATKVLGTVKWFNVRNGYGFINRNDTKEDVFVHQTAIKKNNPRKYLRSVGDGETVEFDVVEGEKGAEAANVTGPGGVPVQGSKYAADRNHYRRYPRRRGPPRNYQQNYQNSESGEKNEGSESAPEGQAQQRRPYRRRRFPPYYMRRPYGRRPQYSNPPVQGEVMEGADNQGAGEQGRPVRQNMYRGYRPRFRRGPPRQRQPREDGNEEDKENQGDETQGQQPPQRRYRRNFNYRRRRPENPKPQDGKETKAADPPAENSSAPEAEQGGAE
DHX36: DHX36 53-105 (Homo sapiens, UniProt Q9H2U1)
UniProt Q9H2U1, sequence (whole entry, looked up): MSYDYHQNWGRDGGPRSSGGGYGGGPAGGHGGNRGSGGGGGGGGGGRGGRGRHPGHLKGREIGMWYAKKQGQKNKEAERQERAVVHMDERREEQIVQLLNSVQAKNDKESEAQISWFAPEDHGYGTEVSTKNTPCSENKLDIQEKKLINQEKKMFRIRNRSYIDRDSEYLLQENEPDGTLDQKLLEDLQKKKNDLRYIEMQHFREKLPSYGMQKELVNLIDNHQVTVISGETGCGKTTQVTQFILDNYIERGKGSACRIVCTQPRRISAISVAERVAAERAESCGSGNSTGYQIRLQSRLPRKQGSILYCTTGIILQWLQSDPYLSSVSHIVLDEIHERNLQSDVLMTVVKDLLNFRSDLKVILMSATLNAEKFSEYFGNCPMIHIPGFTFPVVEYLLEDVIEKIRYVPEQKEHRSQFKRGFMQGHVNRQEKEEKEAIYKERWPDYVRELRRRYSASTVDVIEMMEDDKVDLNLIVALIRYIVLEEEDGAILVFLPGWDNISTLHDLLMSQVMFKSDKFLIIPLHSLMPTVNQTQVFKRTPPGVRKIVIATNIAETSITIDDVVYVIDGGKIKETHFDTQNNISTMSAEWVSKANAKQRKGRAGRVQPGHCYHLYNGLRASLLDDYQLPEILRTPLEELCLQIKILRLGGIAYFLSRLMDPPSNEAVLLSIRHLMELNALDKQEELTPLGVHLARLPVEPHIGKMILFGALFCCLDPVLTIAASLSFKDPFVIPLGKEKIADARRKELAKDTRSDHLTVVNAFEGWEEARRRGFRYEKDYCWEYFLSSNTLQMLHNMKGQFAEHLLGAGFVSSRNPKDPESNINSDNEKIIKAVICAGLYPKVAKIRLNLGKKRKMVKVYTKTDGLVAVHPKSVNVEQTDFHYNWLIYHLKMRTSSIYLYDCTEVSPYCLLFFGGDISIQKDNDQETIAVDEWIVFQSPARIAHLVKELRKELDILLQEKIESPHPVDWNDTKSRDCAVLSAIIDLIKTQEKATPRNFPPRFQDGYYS
HSFA3 full length assumed: HSFA3 full length assumed (Arabidopsis thaliana, UniProt Q8GYY1)
UniProt Q8GYY1, sequence (whole entry, looked up): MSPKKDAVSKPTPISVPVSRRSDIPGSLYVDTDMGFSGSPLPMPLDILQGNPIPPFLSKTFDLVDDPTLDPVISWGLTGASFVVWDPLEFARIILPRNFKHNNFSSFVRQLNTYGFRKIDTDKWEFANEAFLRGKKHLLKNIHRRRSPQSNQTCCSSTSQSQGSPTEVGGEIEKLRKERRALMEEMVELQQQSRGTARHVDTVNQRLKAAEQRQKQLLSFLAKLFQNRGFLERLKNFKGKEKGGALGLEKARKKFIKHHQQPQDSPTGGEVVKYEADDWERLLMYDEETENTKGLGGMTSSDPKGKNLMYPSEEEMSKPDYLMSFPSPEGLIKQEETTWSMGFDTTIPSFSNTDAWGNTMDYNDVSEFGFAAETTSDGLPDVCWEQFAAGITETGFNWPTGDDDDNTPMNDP
BZIP23: BZIP23 1-357 (Oryza sativa, UniProt Q6Z312)
UniProt Q6Z312, sequence (whole entry, looked up): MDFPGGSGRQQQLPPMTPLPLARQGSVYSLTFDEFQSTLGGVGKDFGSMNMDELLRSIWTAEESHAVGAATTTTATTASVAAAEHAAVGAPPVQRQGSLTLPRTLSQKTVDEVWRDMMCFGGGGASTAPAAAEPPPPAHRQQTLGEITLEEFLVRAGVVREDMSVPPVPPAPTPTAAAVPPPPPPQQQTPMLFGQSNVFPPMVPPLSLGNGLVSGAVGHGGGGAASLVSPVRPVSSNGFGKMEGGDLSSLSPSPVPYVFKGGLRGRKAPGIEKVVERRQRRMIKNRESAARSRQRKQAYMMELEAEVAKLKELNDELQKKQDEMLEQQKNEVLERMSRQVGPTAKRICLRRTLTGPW
Putative PAS/PAC sensor protein full length assumed: Putative PAS/PAC sensor protein full length assumed (Nakamurella multipartita, UniProt C8XJT7)
hel308: hel308 1-690 (Methanothermobacter thermautotrophicus, UniProt O26901)
UniProt O26901, sequence (whole entry, looked up): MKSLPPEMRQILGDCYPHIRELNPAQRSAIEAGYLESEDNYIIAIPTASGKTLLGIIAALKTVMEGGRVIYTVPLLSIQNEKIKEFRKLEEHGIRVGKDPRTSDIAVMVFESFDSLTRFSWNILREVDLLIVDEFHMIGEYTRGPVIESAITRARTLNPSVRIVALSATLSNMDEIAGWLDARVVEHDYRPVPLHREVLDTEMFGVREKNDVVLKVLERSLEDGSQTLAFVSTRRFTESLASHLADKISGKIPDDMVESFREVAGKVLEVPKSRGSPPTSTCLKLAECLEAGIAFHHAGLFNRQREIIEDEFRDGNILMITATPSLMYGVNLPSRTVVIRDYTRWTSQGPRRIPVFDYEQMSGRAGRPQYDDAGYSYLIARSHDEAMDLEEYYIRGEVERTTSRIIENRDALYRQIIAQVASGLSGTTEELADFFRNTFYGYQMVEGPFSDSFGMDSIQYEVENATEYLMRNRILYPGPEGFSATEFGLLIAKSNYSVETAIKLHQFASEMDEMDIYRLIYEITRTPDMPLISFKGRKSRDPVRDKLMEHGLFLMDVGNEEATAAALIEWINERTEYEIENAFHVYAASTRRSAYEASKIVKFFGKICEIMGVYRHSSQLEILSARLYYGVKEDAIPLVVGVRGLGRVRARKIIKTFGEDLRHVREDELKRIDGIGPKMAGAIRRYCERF
UniProt Q15365, sequence (whole entry, looked up): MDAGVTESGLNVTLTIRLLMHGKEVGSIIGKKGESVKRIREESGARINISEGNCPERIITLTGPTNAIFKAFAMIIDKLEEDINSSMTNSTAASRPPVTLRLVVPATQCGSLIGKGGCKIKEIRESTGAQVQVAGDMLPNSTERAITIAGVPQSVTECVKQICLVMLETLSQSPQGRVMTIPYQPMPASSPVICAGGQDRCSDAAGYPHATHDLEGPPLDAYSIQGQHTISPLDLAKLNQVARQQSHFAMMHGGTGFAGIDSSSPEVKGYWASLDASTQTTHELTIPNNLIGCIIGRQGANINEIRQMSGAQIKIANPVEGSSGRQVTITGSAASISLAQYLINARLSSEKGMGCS
UniProt Q9BYJ9, sequence (whole entry, looked up): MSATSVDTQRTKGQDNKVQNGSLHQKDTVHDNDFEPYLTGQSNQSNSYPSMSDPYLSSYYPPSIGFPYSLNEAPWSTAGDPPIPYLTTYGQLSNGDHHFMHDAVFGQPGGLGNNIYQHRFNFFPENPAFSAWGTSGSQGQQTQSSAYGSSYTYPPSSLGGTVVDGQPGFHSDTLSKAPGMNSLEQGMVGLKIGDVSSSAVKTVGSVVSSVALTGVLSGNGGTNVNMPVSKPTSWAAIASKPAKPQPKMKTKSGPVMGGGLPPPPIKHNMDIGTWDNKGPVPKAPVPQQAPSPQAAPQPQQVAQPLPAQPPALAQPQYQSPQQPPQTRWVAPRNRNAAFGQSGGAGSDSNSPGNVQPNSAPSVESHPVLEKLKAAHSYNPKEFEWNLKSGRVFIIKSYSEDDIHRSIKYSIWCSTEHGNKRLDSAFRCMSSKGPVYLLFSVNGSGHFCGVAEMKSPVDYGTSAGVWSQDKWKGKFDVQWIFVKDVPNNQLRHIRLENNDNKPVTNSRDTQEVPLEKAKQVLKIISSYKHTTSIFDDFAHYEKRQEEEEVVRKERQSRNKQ
UniProt P21802, sequence (whole entry, looked up): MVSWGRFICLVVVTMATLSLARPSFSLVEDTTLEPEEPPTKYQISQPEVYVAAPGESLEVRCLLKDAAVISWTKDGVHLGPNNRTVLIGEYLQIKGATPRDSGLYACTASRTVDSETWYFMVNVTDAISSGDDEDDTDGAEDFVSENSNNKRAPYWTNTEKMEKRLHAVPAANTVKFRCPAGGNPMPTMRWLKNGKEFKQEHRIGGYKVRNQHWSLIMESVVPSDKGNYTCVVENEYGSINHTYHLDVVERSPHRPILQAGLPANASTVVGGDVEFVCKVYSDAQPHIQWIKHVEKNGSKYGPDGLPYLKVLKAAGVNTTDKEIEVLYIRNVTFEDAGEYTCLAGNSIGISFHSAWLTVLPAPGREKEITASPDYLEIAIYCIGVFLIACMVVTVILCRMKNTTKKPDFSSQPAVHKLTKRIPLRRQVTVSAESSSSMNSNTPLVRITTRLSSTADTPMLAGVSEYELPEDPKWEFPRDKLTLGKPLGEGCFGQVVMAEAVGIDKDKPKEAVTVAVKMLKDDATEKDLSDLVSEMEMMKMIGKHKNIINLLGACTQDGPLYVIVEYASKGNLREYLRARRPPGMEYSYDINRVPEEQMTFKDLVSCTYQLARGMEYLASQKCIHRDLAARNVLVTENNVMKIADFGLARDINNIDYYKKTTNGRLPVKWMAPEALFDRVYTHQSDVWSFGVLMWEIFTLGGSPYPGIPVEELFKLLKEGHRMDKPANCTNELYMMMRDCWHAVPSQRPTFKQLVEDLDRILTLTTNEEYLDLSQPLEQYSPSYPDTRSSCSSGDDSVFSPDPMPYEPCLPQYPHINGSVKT
UniProt P0A8W2, sequence (whole entry, looked up): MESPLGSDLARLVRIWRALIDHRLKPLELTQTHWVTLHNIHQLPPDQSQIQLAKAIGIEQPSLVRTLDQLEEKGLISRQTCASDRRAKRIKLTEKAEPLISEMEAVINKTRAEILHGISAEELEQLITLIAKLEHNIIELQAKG

Oligonucleotide | target | test | system | conditions | measurement | result
AACAACT (ssDNA) | YBX1 | ITC | single-stranded DNA | – | binding | binds
GGGUUGCGGAGGGUGGGCCU (G-quadruplex RNA (Homo sapiens); G4) | DHX36 | EMSA | folded RNA | – | binding | binds
GTATACCTGCAGCTGAGGCGAGCCGTTGGTGTGGATGGCAGGGGCAGGATTCGACTCTAGAGCGCA (ssDNA; stem-loop) | FGFR2 22-377 (Homo sapiens, UniProt P21802) | EMSA | single-stranded DNA | with: Mg2+ 5 mM | binding | no binding
GGGUUGCGGAGGGUGGG (G-quadruplex RNA (Homo sapiens); G4) | DHX36 | EMSA | folded RNA | – | binding | binds
CCCGGATCCGTAGTGACCAAAGCTATATTTACCAACGAATGTAGATGAAAAAATCATCTCCTGCGTTCCCCCATATCTCTAGGATAAAAAGGAATGTAACAATCTCATGGCGTAAGCTGACGAATCAGCAGGAATAATCGCTAGGGACCTAAGAATTAGCATGATAATAGCCACTAAGAAATTACTGCGCTCCATGAAATAGCCATTTTGTGGCAAATGGAGTTGACTAATAATGTCATATGTGAGACGGCTAGTTGAACGAATATTAAATTTTGCTGAATTTTTTATGTCGACGGG (dsDNA) | slyA full length assumed (Escherichia coli, UniProt P0A8W2) | EMSA | double-stranded DNA, one strand shown | – | binding | binds
CCCACTTTCCAGAACTTTCACGG (dsDNA) | HSFA3 full length assumed | EMSA | double-stranded DNA, one strand shown | – | binding | binds
TGACCTGGCCGCCGTCCCCC (dsDNA) | AP2/ERF domain-containing protein 1-442 (Vitis vinifera, UniProt A5C831) | EMSA | double-stranded DNA, one strand shown | – | binding | binds
TCACGCGGGATCAATGTGTTCTTTCAGCTCCGGTCACGCTGACCAGGAATACCTCACTACC (dsDNA; one 5-methyl-dC opposite G) | ROS1 1-1393 Q607A (Arabidopsis thaliana, UniProt Q9SJQ6) | EMSA | double-stranded DNA, one strand shown | 130 nM | binding | no binding
AGGGCGGTGTGGGAAGAGGGA (G-quadruplex DNA (Homo sapiens)) | MAZ (Homo sapiens, UniProt P56270) | EMSA | folded DNA | – | binding | binds
GTAGGAGGCGCGGCTGCCACGAGACGAGGTCATTGGCCCCCATGCAGCAC (dsDNA) | BZIP23 | EMSA | double-stranded DNA, one strand shown | – | binding | no binding
DNA 1 CCGGGTAAATGCGCG / DNA 2 CGCGCACTTACCCGG (dsDNA; 2-aminopurine, A:C mismatch) | ALKBH2 56-261 (Homo sapiens, UniProt Q6NS38) | 2-aminopurine fluorescence | double-stranded DNA | – | binding | binds
GGGAGGACGAUGCGGUACAGCAGCGAUGCCGUAGUUCUCAGGUCGGAUUCGCAAACAGACGACUCGCUGAGGAUCCGAGA (stem-loop RNA; stem loop) | Putative PAS/PAC sensor protein full length assumed | RiboGreen well assay | folded RNA | residual dark binding, with: blue light | binding | binds
GTCGACCAGCTGAGTCGACCAGCTG (ssDNA; N6-methyl-dA) | YTHDF1 370-559 (Homo sapiens, UniProt Q9BYJ9) | pull-down | single-stranded DNA | – | binding | binds
AAUUGCUACCCAAUGCCUGGCCCAAGGGCAUUCCCAAAGCUUA (ssRNA) | Pcbp1 97-162 (Mus musculus, UniProt P60335) | EMSA | RNA | – | binding | binds
CTTCCTCCAGATGAGCTCATGGGTTTCTCCACCAAGGAAGTTTTCCGCTGGTTG (dsDNA) | NFATC4 400-744 (Homo sapiens, UniProt Q14934) | EMSA | double-stranded DNA, one strand shown | – | binding | binds
GTAGGAGGCGCGGCTGCCACGAGACGAGGTACGTGGCCCCCATGCAGCAC (dsDNA) | BZIP23 | EMSA | double-stranded DNA, one strand shown | – | binding | binds
DNA 1 CAACGTCATAGACGATTACATTGCTACATGGAGCTGTCTAGAGGATCCGA / DNA 2 GTCGGATCCTCTAGACAGCTCCATGATCACTGGCACTGGTAGAATTCGGC / DNA 3 TGCCGAATTCTACCAGTGCCAGTGAT (dsDNA; partial fork, leading strand only) | hel308 | EMSA | folded DNA | – | binding | binds
AACUUGAAGCAGACGAGUG (structured RNA) | Putative PAS/PAC sensor protein full length assumed | 32P well-retention assay | folded RNA | with: blue light | binding | binds

Oligonucleotide | target | test | system | conditions | measurement | result
UUGCGGAGGGUGGGCCUGGGAGGGGUGGUGGCCAUUUUUU (G-quadruplex RNA (Homo sapiens); G4) | DHX36 | EMSA | folded RNA | – | binding | binds
GGUUGUAGCAGACGACC (structured RNA) | Putative PAS/PAC sensor protein full length assumed | 32P well-retention assay | folded RNA | with: blue light | binding | no binding
CCGGTTAGTCAATGATCTGTCACGTGTAAGGATTTAGCTGATATGA (dsDNA) | COL domain class transcription factor (Malus domestica, UniProt D9ZIW3) | EMSA | double-stranded DNA, one strand shown | – | binding | binds
GGGAGGACGAUGCGGCCCGUACAGCAGCGAUGCGGGUCGCGUGUCCACCCCGGCUCAGACGACUCGCUGAGGAUCCGAGA (stem-loop RNA; stem loop) | Putative PAS/PAC sensor protein full length assumed | RiboGreen well assay | folded RNA | residual dark binding, with: blue light | binding | binds
DNA 1 ATCGATAGTCTCTAGACAGCATGTCCTAGCAAGCCAGAATTCGGCAGCGT / DNA 2 ACGCTGCCGAATTCTGGCTTGCTAGG (DNA; 5' ssDNA tail) | hel308 | EMSA | – | – | binding | binds
AACATCT (ssDNA) | YBX1 | ITC | single-stranded DNA | – | binding | binds
UUUUCUUUUUUCUUAUUCUUAUU (ssRNA) | NAB3 321-415 N361A (Saccharomyces cerevisiae, UniProt P38996) | fluorescence anisotropy | RNA | – | binding | binds
GGAUUGUUACUGAUAAAGCAGGCAAAACC (ssRNA; hairpin, two internal loops) | licT 1-56 N9H (Bacillus subtilis, UniProt P39805) | SPR | folded RNA | – | Kd | 0.19 ± 0.08 µM
GGGAGGACGAUGCGGUAGGGUCCUGCCUGUUGCGAUCCUGGGCAUGCAAAUUCCAGACGACUCGCUGAGGAUCCGAGA (structured RNA) | Putative PAS/PAC sensor protein full length assumed | 32P well-retention assay, RiboGreen | folded RNA | with: blue light | binding | no binding
AAACCUUCUUCCCCAGAACCAGCACCACCUUCUGAGGCAAUGGACGCAGA (ssRNA (Homo sapiens); stem-loop, asymmetric bulge) | PCBP1 (Homo sapiens, UniProt Q15365) | EMSA | folded RNA | – | binding | binds
GGGAGGACGAUGCGGUAGGGUCCUGCCUGUUGCGAUCCUGGGCAUGGUUUAAGCAGACGACUCGCUGAGGAUCCGAGA (stem-loop RNA; stem loop) | Putative PAS/PAC sensor protein full length assumed | 32P well-retention assay | folded RNA | with: blue light | binding | binds
TTAAAATTCATGAACTATA (dsDNA) | HSFA3 full length assumed | EMSA | double-stranded DNA, one strand shown | – | binding | no binding
DNA 1 CAACGTCATAGACGATTACATTGCTACATGGAGCTGTCTAGAGGATCCGA / DNA 2 GTCGGATCCTCTAGACAGCTCCATGATCACTGGCACTGGTAGAATTCGGC / DNA 3 TGCCGAATTCTACCAGTGCCAGTGATGGACATCTTTGCCCACGTTGACCC / DNA 4 TGGGTCAACGTGGGCAAAGATGTCC / DNA 5 TAGCAATGTAATCGTCTATGACGTT (dsDNA; four-way junction, one nick) | hel308 | EMSA | folded DNA | – | binding | binds
GGUUGAACCAGACGACC (structured RNA) | Putative PAS/PAC sensor protein full length assumed | 32P well-retention assay | folded RNA | with: blue light | binding | no binding
GGUUUGUUACUGAUAAAGCAGGCAAGACC (ssRNA (Bacillus subtilis); hairpin, two internal loops) | licT 1-56 A4K (Bacillus subtilis, UniProt P39805) | SPR | folded RNA | – | Kd | 6.1 ± 2.4 µM
GGUUGAAGCUGACGACC (structured RNA) | Putative PAS/PAC sensor protein full length assumed | 32P well-retention assay | folded RNA | with: blue light | binding | no binding
GGGUUGCGGAGGGUGGGCCUGGGAGGGGU (G-quadruplex RNA (Homo sapiens); G4) | DHX36 | EMSA | folded RNA | – | binding | binds
